{"data": "Published values of several laboratories", "note": "Protocols differ between the studies behind these lines. ± gives the spread as reported."}
{"Compound": "O=S(=O)(O)Oc1cccc(O)c1O", "test system": "human plasma", "setting": "median", "quantity": "plasma concentration", "result": "917 nM"}
{"Compound": "OCCOCc1ccc(-c2noc(-c3ccc(OCC[18F])c(C(F)(F)F)c3)n2)cc1", "test": "ultrafiltration", "test system": "Macaca mulatta, plasma", "setting": "baseline, both animals", "quantity": "plasma free fraction", "result": "< 1%"}
{"Compound": "COc1cc(C(=O)O)cc(OC)c1O", "test system": "human plasma", "setting": "median, both sexes", "quantity": "plasma concentration", "result": "4570 nM"}
{"Compound": "C[C@@H](O)[C@H](NC(=O)[C@H](Cc1ccc(O)cc1)NC(=O)[C@H](Cc1ccc(O)cc1)NC(=O)[C@H](CO)NC(=O)[C@H](CCCNC(=N)N)NC(=O)[C@H](Cc1c[nH]cn1)NC(=O)[C@@H](N)Cc1c[nH]c2ccccc12)C(=O)N[C@@H](Cc1c[nH]c2ccccc12)C(=O)N[C@@H](CC(N)=O)C(=O)NCCCC[C@H](NC(=O)[C@H](CC(N)=O)NC(=O)[C@H](Cc1c[nH]c2ccccc12)NC(=O)[C@@H](NC(=O)[C@H](Cc1ccc(O)cc1)NC(=O)[C@H](Cc1ccc(O)cc1)NC(=O)[C@H](CO)NC(=O)[C@H](CCCNC(=N)N)NC(=O)[C@H](Cc1c[nH]cn1)NC(=O)[C@@H](N)Cc1c[nH]c2ccccc12)[C@@H](C)O)C(=O)NCCCC[C@H](NC(=O)[C@H](CCCCNC(=O)[C@H](CC(N)=O)NC(=O)[C@H](Cc1c[nH]c2ccccc12)NC(=O)[C@@H](NC(=O)[C@H](Cc1ccc(O)cc1)NC(=O)[C@H](Cc1ccc(O)cc1)NC(=O)[C@H](CO)NC(=O)[C@H](CCCNC(=N)N)NC(=O)[C@H](Cc1c[nH]cn1)NC(=O)[C@@H](N)Cc1c[nH]c2ccccc12)[C@@H](C)O)NC(=O)[C@H](CC(N)=O)NC(=O)[C@H](Cc1c[nH]c2ccccc12)NC(=O)[C@@H](NC(=O)[C@H](Cc1ccc(O)cc1)NC(=O)[C@H](Cc1ccc(O)cc1)NC(=O)[C@H](CO)NC(=O)[C@H](CCCNC(=N)N)NC(=O)[C@H](Cc1c[nH]cn1)NC(=O)[C@@H](N)Cc1c[nH]c2ccccc12)[C@@H](C)O)C(=O)N[C@@H](CCCCN)C(=O)N[C@@H](CCCCN)C(=O)N[C@@H](CCCCN)C(N)=O", "test system": "human serum albumin", "quantity": "plasma protein binding", "result": "95%"}
{"Compound": "O=C1CCc2ccc(OCCCCN3CCN(c4cccc(Cl)c4Cl)CC3)cc2N1", "test system": "patients, plasma, steady state", "setting": "oral or long-acting depot injection, dose not given, CYP2D6 IM", "scale": "reference: CYP2D6 NM", "quantity": "plasma level increase", "result": "61%"}
{"Compound": "O=C(O)/C=C/c1ccc(O)c(O[C@@H]2O[C@H](C(=O)O)[C@@H](O)[C@H](O)[C@H]2O)c1", "test system": "human plasma", "setting": "mean", "quantity": "plasma concentration", "result": "18.7 nM"}
{"Compound": "COc1cc2c3c(n(CCCNC(C)C)c(=O)c2cc1OC)-c1nc2c(cc1C3=O)OCO2", "test system": "mouse plasma", "setting": "1 µM, 6 h, 37 °C", "quantity": "plasma stability", "result": "92.6%"}
{"Compound": "O=c1oc2cc(O)ccc2c2ccccc12", "test system": "human plasma", "setting": "median", "quantity": "plasma concentration", "result": "293 nM"}
{"Compound": "Cl.N=C(CC(O)c1cc2c(F)cc(F)cc2c2cc(C(F)(F)F)ccc12)Nc1ccc(F)c(F)c1 (centres unmarked)", "test system": "human plasma", "setting": "2.5 and 50 ng/mL", "quantity": "plasma half-life", "result": "51 to 65 h"}
{"Compound": "COc1cc(C(=O)O)ccc1O", "test system": "human plasma", "setting": "mean, both sexes", "quantity": "plasma concentration", "result": "101 nM"}
{"Compound": "C[C@H](CCC(=O)NCC(=O)O)[C@H]1CC[C@H]2[C@@H]3[C@H](O)C[C@@H]4C[C@H](O)CC[C@]4(C)[C@H]3CC[C@]12C", "test system": "women, T/T genotype, plasma", "setting": "dose not given, geometric mean", "quantity": "plasma concentration", "result": "401 ng/mL"}
{"Compound": "CC(C)C[C@H](NC(=O)[C@@H](Cc1c[nH]c2ccccc12)NC(=O)[C@H](Cc1ccc(O)cc1)NC(=O)[C@H](CO)NC(=O)[C@H](Cc1c[nH]c2ccccc12)NC(=O)[C@H](Cc1c[nH]cn1)NC(=O)[C@@H]1CCC(=O)N1)C(=O)N[C@@H](CCCNC(=N)N)C(=O)N1CCC[C@H]1C(=O)NCC(N)=O", "test system": "Chinese boys, precocious puberty, plasma", "setting": "intramuscular, 22.5 mg, 2160 h, month 3, mean", "quantity": "plasma concentration", "result": "0.0422 ng/mL"}
{"Compound": "O=c1c2cc(Cl)ncc2[nH]c(=S)n1Cc1cccnc1", "test system": "mouse plasma", "setting": "concentration not given", "quantity": "plasma stability", "result": "95 to 98.7%"}
{"Compound": "O=C(CCCCCCC(=O)Nc1ccccc1)NO", "test system": "human plasma", "quantity": "plasma stability", "result": "stable"}
{"Compound": "COc1ccccc1OCC(O)CN1CCN(CC(=O)Nc2c(C)cccc2C)CC1 (centres unmarked)", "test system": "human, plasma", "setting": "oral, 12 mg/kg/day every 12 h, 3 h post-dose", "quantity": "plasma concentration", "result": "269 ng/mL"}
{"Compound": "OC[C@H](Cc1cccc(O)c1)[C@H](CO)Cc1cccc(O)c1", "test system": "human plasma", "setting": "median, both sexes", "quantity": "plasma concentration", "result": "826 nM"}
{"Compound": "CCNCCCn1c2c(c3cc(OC)c(OC)cc3c1=O)C(=O)c1cc3c(nc1-2)OCO3", "test system": "mouse plasma", "setting": "1 µM, 6 h, 37 °C", "quantity": "plasma stability", "result": "86.6%"}
{"Compound": "O=Cc1ccc(O)c(O)c1", "test system": "human plasma", "setting": "mean, both sexes", "quantity": "plasma concentration", "result": "18.6 nM"}
{"Compound": "C[C@@H](O)[C@H](NC(=O)[C@H](Cc1ccc(O)cc1)NC(=O)[C@H](Cc1ccc(O)cc1)NC(=O)[C@H](CO)NC(=O)[C@H](CCCNC(=N)N)NC(=O)[C@H](Cc1c[nH]cn1)NC(=O)[C@@H](N)Cc1c[nH]c2ccccc12)C(=O)N[C@@H](Cc1c[nH]c2ccccc12)C(=O)N[C@@H](CC(N)=O)C(=O)NCCCC[C@H](NC(=O)[C@H](CC(N)=O)NC(=O)[C@H](Cc1c[nH]c2ccccc12)NC(=O)[C@@H](NC(=O)[C@H](Cc1ccc(O)cc1)NC(=O)[C@H](Cc1ccc(O)cc1)NC(=O)[C@H](CO)NC(=O)[C@H](CCCNC(=N)N)NC(=O)[C@H](Cc1c[nH]cn1)NC(=O)[C@@H](N)Cc1c[nH]c2ccccc12)[C@@H](C)O)C(N)=O", "test system": "human serum albumin", "quantity": "plasma protein binding", "result": "93%"}
{"Compound": "C[C@H](CCC(=O)NCC(=O)O)[C@H]1CC[C@H]2[C@@H]3CC[C@@H]4C[C@H](O)CC[C@]4(C)[C@H]3C[C@H](O)[C@]12C", "test system": "men, C/C genotype, plasma", "setting": "dose not given, geometric mean", "quantity": "plasma concentration", "result": "176 ng/mL"}
{"Compound": "Cc1cc(Nc2ccc(S(F)(F)(F)(F)F)cc2)n2ncnc2n1", "test system": "diluted mouse plasma", "setting": "2 µM, 6 h", "quantity": "plasma stability", "result": "95 % remaining"}
{"Compound": "C=CC(=O)N1CCC([C@@H]2CCNc3c(C(N)=O)c(-c4ccc(Oc5ccccc5)cc4)nn32)CC1", "test system": "human K2EDTA plasma", "quantity": "plasma stability freeze-thaw cycles", "result": "≤ 5 freeze-thaw cycles"}
{"Compound": "CC(=O)N1CCN(c2ccc(OCC3COC(Cn4ccnc4)(c4ccc(Cl)cc4Cl)O3)cc2)CC1 (centres unmarked)", "test system": "mouse plasma", "setting": "1 µM, 6 h, 37 °C", "quantity": "plasma stability", "result": "88.8%"}
{"Compound": "O=C(O)CCc1ccc(O)c(O)c1", "test system": "human plasma", "setting": "median", "quantity": "plasma concentration", "result": "232 nM"}
{"Compound": "COc1cc2c3c(n(CCCNCCO)c(=O)c2cc1OC)-c1nc2c(cc1C3=O)OCO2", "test system": "human plasma", "setting": "1 µM, 6 h, 37 °C", "quantity": "plasma stability", "result": "95.4%"}
{"Compound": "CC(C)NCC(O)COc1cccc2ccccc12 (centres unmarked)", "test": "rapid equilibrium dialysis", "test system": "human plasma", "setting": "4 h", "quantity": "plasma protein binding", "result": "77.6 ± 0.9%"}
{"note": "A few entries again:"}
{"Compound": "CC(=O)N1CCN(c2ccc(OCC3COC(Cn4ccnc4)(c4ccc(Cl)cc4Cl)O3)cc2)CC1 (centres unmarked)", "test system": "mouse plasma", "setting": "1 µM, 6 h, 37 °C", "quantity": "plasma stability", "result": "88.8%"}
